# Measurements collected from several papers.
# Each line is one published result; not all experiments were run side by side. Several values in a cell are separate wells, animals, samples, runs or records. Numbers after ± are the reported error.
SMILES,assay,test system,conditions,scale,quantity,result
CNC(=O)c1ccc(-c2cnc3ncc(Cc4ccc5ncccc5c4)n3n2)cc1F,"item: Dizziness, all grades",hepatocellular carcinoma patients,"oral, 600 mg twice daily, expansion cohort, any causality",,patients with adverse event,9%
C[Si]1(C)O[Si](C)(C)O[Si](C)(C)O[Si](C)(C)O[Si](C)(C)O1,,1-octanol/air,concentration not given,,entropy of phase change,-0.064 kJ/(mol·K)
Cl.[2H]C([2H])([2H])CC(=O)c1cnc(NC(=O)C2CC2)cc1Nc1cccc(-c2ncn(C([2H])([2H])[2H])n2)c1OC,geometric mean,human,"oral, 20 mg twice daily, day 7, fed, liquid, multiple dose",,AUC(0-inf),2420 ng·h/mL
Oc1ccc(/C=C/c2cc(O)cc(O)c2)cc1,,"rat, azoxymethane-injected, blood at sacrifice",100 mg/kg,,HDL cholesterol,26 mg/dL and 23 mg/dL
Cc1c(-c2ccc(N3CCc4cccc(C(=O)Nc5nc6ccccc6s5)c4C3)nc2C(=O)O)cnn1CC12CC3(C)CC(C)(C1)CC(OCCNCC[C@H](O)CO)(C3)C2,,anaesthetised male beagle dogs,"intravenous infusion, 0.3 mg/kg/min, 75 min",baseline: vehicle,cardiac output change,-16%
C=CC(=O)Nc1cc(Nc2nccc(-c3cn(C)c4ccccc34)n2)c(OC)cc1N(C)CCN(C)C,storage stability,human dried blood spots,"24 h, on ice, high QC level",,recovery,78%
CCc1nc(C(N)=O)c(Nc2ccc(N3CCC(N4CCN(C)CC4)CC3)c(OC)c2)nc1NC1CCOCC1,,processed mouse plasma,"15 ng/mL, 24 h, 4 °C",,autosampler stability accuracy,94.9%
CNCCOC12CC3(C)CC(C)(CC(Cn4ncc(-c5ccc(N6CCc7cccc(C(=O)Nc8nc9ccccc9s8)c7C6)nc5C(=O)O)c4C)(C3)C1)C2,,"beagle dog, male, anaesthetised","intravenous bolus, 0.03 mg/kg, 30 min",baseline: baseline,mean arterial pressure change,-3%
CCCCCN1C[C@H](O)[C@@H](O)[C@H](O)[C@@H]1CO,LC-MS/MS,"mouse Hexb-/- male, plasma","300 mg/kg/day, arithmetic mean",,plasma concentration,3000 ng/mL
[18F]c1ccc(-c2ccc3c(c2)[nH]c2ccncc23)cn1,microPET/CT imaging,"B6SJL mouse, normal, brain","intravenous, 10 min",,SUV,1 ± 0.158
Cc1ccc(C(=O)N(CCCN)C(c2nc3snc(C)c3c(=O)n2Cc2ccccc2)C(C)C)cc1 (stereo not drawn),,human patients,"intravenous, 7 mg/day",,grade ≥3 dysphagia patients,0%
C[C@H]1Oc2cc(cnc2N)-c2c(nn(C)c2C#N)CN(C)C(=O)c2ccc(F)cc21,,"Balb/c nude mouse female, plasma","5 mg/kg single dose, 1 h",,free plasma concentration,898 nM
Cc1ccc([C@@H]2O[C@H](CO)[C@@H](O)[C@H](O)[C@H]2O)cc1Cc1ccc(-c2ccc(F)cc2)s1,,Japanese type 2 diabetes patients,"25 mg, day 17, 24 h urine collection",baseline: baseline,urinary sodium excretion change,-57.6 mEq
CO[C@H]1C[C@@H]2CC[C@@H](C)[C@@](O)(O2)C(=O)C(=O)N2CCCC[C@H]2C(=O)O[C@H]([C@H](C)C[C@@H]2CC[C@@H](OC(=O)NCCOCCOCCOCCOCCOCCOCCOCCOCCC(=O)N3CCc4cc(Cn5nc(-c6ccc7oc(N)nc7c6)c6c(N)ncnc65)ccc4C3)[C@H](OC)C2)C[C@@H](O)[C@H](C)/C=C(\C)[C@@H](O)[C@@H](OC)C(=O)[C@H](C)C[C@H](C)/C=C/C=C/C=C/1C,,"human patients, plasma","intravenous, 10 mg, cycle 1 day 15, weekly dosing, 1 h infusion, arithmetic mean",,AUClast,695 ng·h/mL
C=C[C@@](C)(/C=C/c1ccc(O)cc1)CCC=C(C)C,,rat plasma,"1000 ng/mL, 2 weeks, -70 °C, post-preparative stability",,accuracy,97.8%
O=C(N[C@H](Cc1c[nH]c2ccccc12)C(=O)Nc1ccncc1)c1ccc(-c2cc(C(F)(F)F)ccc2F)cc1F,,"Swiss Webster mouse, female, brain","oral, 50 mg/kg, 2 h, 20% Kolliphor vehicle",,concentration,2670 nM
Cc1nc(-c2ccc(OCC(C)C)c(C#N)c2)sc1C(=O)O,,"KM mouse, chronic hyperuricaemia model","dose not given, day 17",,body weight,40.1 g and 37 g and 36.4 g and 33.7 g and 31.6 g and 32.1 g
Cc1cc(-c2nccc3c2ccn3CC(=O)Nc2ccc(-c3cnccn3)cn2)ccn1,,human,"20 mg once daily, multiple ascending dose",,subjects with Cough adverse event,0%
c1cc2ccc3ccc4ccc5cccc6c(c1)c2c3c4c56,,PDMS-water partitioning,PAH compilation,,literature range of log K,5.02 to 5.61 log units
N#Cc1ccc2c(c1)[C@H]1CCCN(C(=O)c3ccc4[nH]cnc4c3)[C@H]1C2,,human,"240 mg, day 7",,minimum ACTH level,1.9 pmol/L
OC[C@H]1O[C@@H](c2ccc(Cl)c(Cc3ccc(O[C@H]4CCOC4)cc3)c2)[C@H](O)[C@@H](O)[C@@H]1O,,"Japanese type 1 diabetes patients, blood","25 mg, day 28",baseline: baseline,change in Bicarbonate,-1 mEq/L
COc1cc([C@H]2OC[C@H]3[C@@H]2CO[C@@H]3c2ccc(O[C@@H]3O[C@H](CO)[C@@H](O)[C@H](O)[C@H]3O)c(OC)c2)ccc1O[C@@H]1O[C@H](CO)[C@@H](O)[C@H](O)[C@H]1O,post-procedure stability,rat plasma,"1000 ng/mL, 3 h, room temperature",,accuracy,96.5%
O=C(c1nc2n(n1)[C@H](c1ccccc1)C[C@@H]2F)C1CC1,,human,"225 mg single dose, mean",,renal clearance,0.183 mL/min
CC(C)C[C@H](NC(=O)[C@H](CCc1ccccc1)NC(=O)CN1CCOCC1)C(=O)N[C@@H](Cc1ccccc1)C(=O)N[C@@H](CC(C)C)C(=O)[C@@]1(C)CO1,"population PK, two-compartment model","adult relapsed/refractory DLBCL patients, plasma","intravenous infusion, dose not given, together with: R-ICE",,central volume of distribution,9.37 L
CCC(=O)O[C@]1(C(=O)SCF)[C@H](C)C[C@H]2[C@@H]3C[C@H](F)C4=CC(=O)C=C[C@]4(C)[C@@]3(F)[C@@H](O)C[C@@]21C,three-compartment model,"rat, plasma","intravenous, 90 nmol/kg",,slow compartment volume,9 ± 3.5 L/kg
C[C@@H](N)C1CCN(S(=O)(=O)c2cccc3cnccc23)CC1,,healthy volunteers,"250 mg, fasted",,participants with TEAEs,66.7%
CCc1cc(C(=O)NC)c2nccc(N3CCc4c(cc(Cn5ccnc5)cc4-c4cn(C)nc4C(F)(F)F)C3=O)c2c1,,Sprague Dawley rats,"oral, 100 mg/kg twice daily, 7 days",baseline: vehicle,blood UREA change,17.5%
COCc1cc(C(=O)Nc2cc([C@H]3CC[C@@H](OC(=O)NC(C)C)C3)[nH]n2)n(C)n1,,"OVCAR-3 xenograft, NOD/SCID gamma mice, plasma","oral, 15 twice daily, PK/PD study",,AUC(0-24h),2.11 µM·h
Cc1ccc(Sc2ccccc2N2CCNCC2)c(C)c1,item: ureteric calculus,healthy adult women,"oral, 10 mg daily, 12 days",,participants with TEAE,0%
CCO[C@H]1CCN(Cc2c(OC)cc(C)c3[nH]ccc23)[C@H](c2ccc(C(=O)O)cc2)C1,,"human severe hepatic impairment, plasma","oral, 200 mg single dose, mean",,unbound Cmax,1470 ng/mL
CCOC(=O)c1c(NC(=O)CNC(C)C)sc2c1CCCCC2,,"mouse, brain","intraperitoneal, 5 mg/kg",,brain AUC(0-0.5 h),94.8 ng·h/g
Cc1cc(-c2nnc(N)nc2-c2ccc(F)cc2)cc(Cl)n1,item: Colitis,IO-naive colorectal cancer patients,"oral, dose not given, treatment-related, all grades",,patients with immune-mediated AE,0%
COCCOc1cnc2ccn([C@H](C)c3nnc4c(F)cc(-c5cnn(C)c5)cn34)c(=O)c2c1,,patients,"oral, 300 mg once daily, day 1, 24 h postdose, dose escalation",,Ctrough,400 ng/mL
CNCc1ccc(-c2[nH]c3cc(F)cc4c3c2CCNC4=O)cc1,item: headache,human patients,"oral, 600 mg twice daily, grade 5",,patients with adverse event,0%
CCN1/C(=C/C(C)=O)Sc2ccc(F)cc21,,cynomolgus monkey,"oral, 10 mg/kg, 6 h post-dose",,heart rate,110 ± 32 beats/min
Cc1cc(NC2CCN(C(=O)OC3CCN(C(=O)/C=C/CN(C)C)C3)CC2)n2ncc(C(C)C)c2n1 (stereo not drawn),"CTCAE v4.0, item: Ascites",patients with advanced solid tumours,"oral, dose not given, all schedules, grade 3 or higher",,patients with TEAE,2%
Cn1cc(-c2ccc(S(=O)(=O)[C@@H]3C[C@@H](C(=O)NC4(C#N)CC4)N(C(=O)C4(C(F)(F)F)CC4)C3)c(C(F)(F)F)c2)cn1,noncompartmental analysis,"human, plasma","oral, 50 mg, day 1, with food, geometric mean",,t_half,497 min
Cc1nc2cccc(OCC(C)(C)C(=O)NC(C)C)c2c(N)c1C(=O)O,,"male Swiss albino CD-1 mouse, bone marrow","oral, 500 mg/kg, 36 h",,micronucleated polychromatic erythrocytes,0.05%
NC1(C(=O)N[C@@H](CCO)c2ccc(Cl)cc2)CCN(c2nc[nH]c3nccc2-3)CC1,,metastatic CRPC patients,"480 mg b.i.d., grade 3 to 4, treatment-related, together with: enzalutamide 160 mg daily",,incidence of Blindness,0%

# A few entries again:
SMILES,assay,test system,conditions,scale,quantity,result
N#Cc1ccc2c(c1)[C@H]1CCCN(C(=O)c3ccc4[nH]cnc4c3)[C@H]1C2,,human,"240 mg, day 7",,minimum ACTH level,1.9 pmol/L
CCCCCN1C[C@H](O)[C@@H](O)[C@H](O)[C@@H]1CO,LC-MS/MS,"mouse Hexb-/- male, plasma","300 mg/kg/day, arithmetic mean",,plasma concentration,3000 ng/mL
Cn1cc(-c2ccc(S(=O)(=O)[C@@H]3C[C@@H](C(=O)NC4(C#N)CC4)N(C(=O)C4(C(F)(F)F)CC4)C3)c(C(F)(F)F)c2)cn1,noncompartmental analysis,"human, plasma","oral, 50 mg, day 1, with food, geometric mean",,t_half,497 min
C[C@@H](N)C1CCN(S(=O)(=O)c2cccc3cnccc23)CC1,,healthy volunteers,"250 mg, fasted",,participants with TEAEs,66.7%
